Literature values, collected from citations in different studies.
Values joined by “and” are separate records of one study, mostly repeats; a detail may differ. ± marks the error that the study gave.
MTAP: S-methyl-5'-thioadenosine phosphorylase (MTAP, Homo sapiens, UniProt Q13126)
Sequence of UniProt Q13126 (whole entry, looked up): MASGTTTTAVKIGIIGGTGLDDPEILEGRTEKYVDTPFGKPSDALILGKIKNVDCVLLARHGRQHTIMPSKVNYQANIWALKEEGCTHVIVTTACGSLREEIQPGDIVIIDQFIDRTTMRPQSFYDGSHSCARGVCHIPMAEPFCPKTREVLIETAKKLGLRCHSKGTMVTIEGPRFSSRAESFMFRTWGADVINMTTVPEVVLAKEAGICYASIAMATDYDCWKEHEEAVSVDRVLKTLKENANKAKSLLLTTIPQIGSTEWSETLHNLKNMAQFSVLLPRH
ADORA1: Adenosine receptor A1 (ADORA1, Homo sapiens, UniProt P30542)
Sequence of UniProt P30542 (whole entry, looked up): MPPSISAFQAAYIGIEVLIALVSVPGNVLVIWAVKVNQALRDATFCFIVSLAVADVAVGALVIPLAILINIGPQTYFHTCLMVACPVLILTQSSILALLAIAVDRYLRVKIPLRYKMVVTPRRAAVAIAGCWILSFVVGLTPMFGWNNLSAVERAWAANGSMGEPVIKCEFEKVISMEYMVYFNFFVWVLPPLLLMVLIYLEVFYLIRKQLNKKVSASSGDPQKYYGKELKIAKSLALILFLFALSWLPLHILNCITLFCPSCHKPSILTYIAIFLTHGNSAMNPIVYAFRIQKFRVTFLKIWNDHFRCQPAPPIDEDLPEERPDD
Grin2b with GluN1a: Glutamate receptor ionotropic, NMDA 2B, with GluN1a (Grin2b, Rattus norvegicus, UniProt Q00960)
Grin2a with GluN1a subunit: Glutamate receptor ionotropic, NMDA 2A, with GluN1a subunit (Grin2a, Rattus norvegicus, UniProt Q00959)
Equilibrative nucleoside transporter 2: Equilibrative nucleoside transporter 2 (Homo sapiens, UniProt Q14542)
Sequence of UniProt Q14542 (whole entry, looked up): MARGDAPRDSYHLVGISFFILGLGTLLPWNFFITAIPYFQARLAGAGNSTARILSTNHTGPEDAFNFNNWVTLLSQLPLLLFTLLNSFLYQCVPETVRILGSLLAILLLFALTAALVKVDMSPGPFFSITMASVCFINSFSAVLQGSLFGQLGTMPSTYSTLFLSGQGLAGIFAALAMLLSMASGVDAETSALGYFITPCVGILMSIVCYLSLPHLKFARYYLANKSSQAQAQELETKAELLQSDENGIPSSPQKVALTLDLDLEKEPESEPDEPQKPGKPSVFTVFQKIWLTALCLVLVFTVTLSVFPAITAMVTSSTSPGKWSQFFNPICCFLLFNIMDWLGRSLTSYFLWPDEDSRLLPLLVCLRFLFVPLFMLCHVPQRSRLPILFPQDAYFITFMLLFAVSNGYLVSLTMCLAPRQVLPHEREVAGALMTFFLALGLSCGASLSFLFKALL
Sequence of UniProt P30536 (whole entry, looked up): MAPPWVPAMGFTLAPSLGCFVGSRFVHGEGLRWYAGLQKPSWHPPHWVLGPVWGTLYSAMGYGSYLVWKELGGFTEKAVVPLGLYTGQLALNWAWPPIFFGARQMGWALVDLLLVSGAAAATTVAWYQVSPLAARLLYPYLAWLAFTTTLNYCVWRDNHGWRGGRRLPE
Sequence of UniProt P9WHE9 (whole entry, looked up): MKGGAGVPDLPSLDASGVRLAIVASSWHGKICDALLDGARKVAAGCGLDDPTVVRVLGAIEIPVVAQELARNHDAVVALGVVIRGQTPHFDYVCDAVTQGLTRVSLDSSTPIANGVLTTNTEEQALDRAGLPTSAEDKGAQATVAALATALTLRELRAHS
Sequence of UniProt Q12908 (whole entry, looked up): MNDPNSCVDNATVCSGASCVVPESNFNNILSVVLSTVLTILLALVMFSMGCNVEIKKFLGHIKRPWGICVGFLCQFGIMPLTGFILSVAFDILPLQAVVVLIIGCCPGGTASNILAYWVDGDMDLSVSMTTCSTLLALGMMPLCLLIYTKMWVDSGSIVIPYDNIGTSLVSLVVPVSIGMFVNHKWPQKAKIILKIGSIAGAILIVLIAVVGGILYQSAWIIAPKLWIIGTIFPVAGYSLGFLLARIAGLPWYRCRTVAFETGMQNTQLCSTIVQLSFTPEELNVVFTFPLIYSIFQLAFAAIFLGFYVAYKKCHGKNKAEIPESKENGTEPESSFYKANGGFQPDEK
Sequence of UniProt P07148 (whole entry, looked up): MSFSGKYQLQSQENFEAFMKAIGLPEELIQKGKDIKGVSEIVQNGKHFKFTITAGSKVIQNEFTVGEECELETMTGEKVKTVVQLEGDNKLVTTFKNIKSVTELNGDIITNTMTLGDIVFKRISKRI

`Nc1ncnc2c(CN3CC(CSc4ccc(Cl)cc4)[C@H](O)C3)c[nH]c12` (some centres unmarked) gave a Ki of 1e-05 µM (MTAP; slow-onset tight-binding inhibitor).
With `OCC1CC(n2cnc3c(SCc4ccc(Br)cc4)ncnc32)C(O)C1O` (centres unmarked) the Ki was 21 ± 3.7 µM (adenosine kinase (Toxoplasma gondii); apparent Ki equals apparent Km).
`O=C(O)c1ccc(/C=C2\SC(=S)N(c3cccc(C(F)(F)F)c3)C2=O)cc1` gave a Ki of 2 to 5 µM (Cystic fibrosis transmembrane conductance regulator (CFTR, Homo sapiens, UniProt P13569); channel function; intact epithelial cells).
`Nc1ncnc2c(CN3C[C@H](CSc4ccc(Cl)cc4)[C@@H](O)C3)c[nH]c12` has a Ki of 1e-05 µM (MTAP; inhibitor).
With `CNC(=O)[C@@]12C[C@@H]1[C@@H](n1cnc3c(NCc4cccc(I)c4)nc(Cl)nc31)[C@H](O)[C@@H]2O` the Ki was 0.136 ± 0.022 µM (ADORA1; radioligand binding; CHO cells expressing human A1 receptor).
The Ki of `O=C(O)c1cccc([C@H]2CCN[C@@H]2C(=O)O)c1` is reported as 6 µM (NMDA receptor rat; binding; rat synaptosomes; together with: [3H]CGP-39653).
The Ki of `CCOc1cccc(NC(=O)c2ccc(N3CCCC3)c(C(F)(F)F)c2)c1` is reported as over 5 µM (Trace amine-associated receptor 1 (TAAR1, Homo sapiens, UniProt Q96RJ0); binding).
With `C=CCN1CCC[C@H]1CNC(=O)c1cc(CCCF)cc(OC)c1OC` the Ki was 0.0003 µM (dopamine D3 receptor; binding; cell line; together with: [3H]spiperone).
For `OCC1CC(n2cnc3c(SCc4c(F)cccc4Cl)ncnc32)C(O)C1O` (centres unmarked), the Ki was 31 ± 4.2 µM (adenosine kinase (Toxoplasma gondii); apparent Ki equals apparent Km).
`NCCCNC(=O)[C@H]1O[C@@H](n2cnc3c(N)ncnc32)[C@H](O)[C@@H]1O` has a Ki of over 10 µM (adenosine A1 receptor; binding).
`OCC1CC(n2cnc3c(SCc4ccc(OC(F)(F)F)cc4)ncnc32)C(O)C1O` (centres unmarked) has a Ki of 66 ± 7.2 µM (adenosine kinase (Toxoplasma gondii); apparent Ki equals apparent Km).
`CC1CN(c2ccc3ccccc3n2)CCN1CCCCN1C(=O)CCCC1=O` (centres unmarked) gave a Ki of 0.05 µM (SERT (human); binding; human tissue; together with: [3H]5-HT).
`C[C@H]1O[C@@H](O[C@H]2[C@@H](O)C[C@H](O[C@H]3[C@@H](O)C[C@H](O[C@H]4CC[C@@]5(C)[C@H](CC[C@@H]6[C@@H]5C[C@@H](O)[C@]5(C)[C@@H](C7=CC(=O)OC7)CC[C@]65O)C4)O[C@@H]3C)O[C@@H]2C)C[C@H](O)[C@@H]1O` has a Ki of 0.28 µM (Na+/K+-ATPase (human kidney); crude kidney membranes; 2 h).
`C[C@H](CCC(=O)O)[C@H]1CC[C@H]2[C@@H]3CC[C@@H]4C[C@H](O)CC[C@]4(C)[C@H]3CC[C@]12C` gave a Ki of 2.1 µM (Ileal sodium/bile acid cotransporter (SLC10A2, Homo sapiens, UniProt Q12908); bile acid transport, inhibitor).
With `CNC(=O)[C@@]12C[C@@H]1[C@@H](n1cnc3c(NCc4cccc(I)c4)nc(Cl)nc31)[C@H](O)[C@@H]2O` the Ki was 0.136 ± 0.022 µM (ADORA1; binding).
The Ki of `MANT-XTP` is reported as 4.6 ± 0.51 µM (Adcy2/ADCY5, C1/C2 domains (Rattus norvegicus, UniProt P26769+P30803); enzyme activity, inhibitor; together with: 10 mM MnCl2 and 100 µM forskolin).
For `O=C(O)/C(=C/c1c(C(=O)O)[nH]c2cc(Cl)cc(Cl)c12)c1ccccc1`, the Ki was 0.0109 µM (glycine binding site rat; [3H]glycine binding; rat brain membranes).
With `O=C(O)[C@H]1NCCN(C(=O)c2ccc3c(c2)CCc2ccccc2-3)[C@H]1C(=O)O` the Ki was 0.76 ± 0.11 µM (Grin2b with GluN1a; ion current, antagonist; Xenopus oocytes expressing GluN1/GluN2B, rat).
The Ki of `COc1ccccc1CN(C(C)=O)c1cnccc1Oc1ccccc1` is reported as ~0.004 µM and 0.004 µM (Translocator protein, open form (TSPO, Homo sapiens, UniProt P30536); human brain tissue; mixed-affinity binders, high-affinity site).
The Ki of `CSC[C@H]1CN(Cc2c[nH]c3c(N)ncnc23)C[C@@H]1O` is reported as 2e-06 µM (5'-methylthioadenosine/S-adenosylhomocysteine nucleosidase (mtnN, Salmonella choleraesuis, UniProt Q57T48); inhibitor).
The Ki of `O=C(O)[C@@H]1NCCN(C(=O)c2ccc3c(ccc4ccccc43)c2)[C@H]1C(=O)O` is reported as 10.5 ± 1.2 µM (Grin2a with GluN1a subunit; ion current, antagonist; Xenopus oocytes expressing GluN1/GluN2A, rat).
With `O=C(c1ccc(F)cc1)C1CCN(C2Cc3c(cccc3OCCF)CC2O)CC1` (single isomer, unassigned; (-)) [fluorine-18 labelled] the Ki was 0.00059 µM (Vesicular acetylcholine transporter (SLC18A3, Homo sapiens, UniProt Q16572); binding; together with: [3H]vesamicol).
With `Nc1nc(Cl)nc2c1ncn2[C@@H]1O[C@H](COP(=O)(O)OP(=O)(O)O)[C@@H](O)[C@@H]1F` the Ki was 0.017 µM (Ribonucleoside-diphosphate reductase large subunit (Homo sapiens, UniProt P23921); enzyme activity, inhibitor).
`OCC1CC(n2cnc3c(SCc4cccc(C(F)(F)F)c4)ncnc32)C(O)C1O` (centres unmarked) has a Ki of 22 ± 1.3 µM (adenosine kinase (Toxoplasma gondii); apparent Ki equals apparent Km).
For `CC(Oc1ccc(O)cc1)(P(=O)(O)O)P(=O)(O)O`, the Ki was 0.42 µM (inositol monophosphatase, bovine frontal cortex; inhibitor).
For `Nc1nc2c(ncn2[C@@H]2O[C@H](CO)[C@@H](O)[C@H]2O)c(=O)[nH]1`, the Ki was 160 ± 52 µM (Equilibrative nucleoside transporter 2; ENT1 knockout).
`Cc1ccc(CSc2ncnc3c2ncn3C2CC(CO)C(O)C2O)cc1` (centres unmarked) has a Ki of 7.5 ± 0.6 µM (adenosine kinase (Toxoplasma gondii); apparent Ki equals apparent Km).
`CC(C(=O)NCc1ccc(C(C)(C)C)cc1)c1ccc(NS(C)(=O)=O)c(F)c1` (centres unmarked) has a Ki of 0.0076 µM (Transient receptor potential cation channel subfamily V member 1 (Trpv1, Rattus norvegicus, UniProt O35433); 45Ca2+ uptake, antagonist; CHO expressing rat TRPV1).
With `2'-fluoro-2'-deoxyadenosine` the Ki was 0.063 ± 0.009 µM (P1 adenosine transporter, Trypanosoma brucei; adenosine transport; Trypanosoma brucei bloodstream forms).
The Ki of `C[C@@H]1CCO[C@H]2Cn3cc(C(=O)NCc4ccc(F)cc4F)c(=O)c(O)c3C(=O)N12` is reported as 2.12 µM (Solute carrier family 22 member 2 (SLC22A2, Homo sapiens, UniProt O15244); inhibitor; geometric mean of reported).
The Ki of `CC(C)C[C@H](CC(=O)NO)C(=O)N[C@H](C(=O)N[C@@H](C)C(=O)NCCN)C(C)(C)C` is reported as 0.12 ± 0.03 µM (ADAM17; inhibitor; literature value).
The Ki of `CC[C@H](C)[C@H](NC(=O)[C@@H](NC(=O)[C@H](CO)NC(=O)[C@@H](NC(=O)[C@@H]1CCCN1C(=O)[C@H](Cc1c[nH]c2ccccc12)NC(=O)[C@H](CCCNC(=N)N)NC(=O)[C@H](CO)NC(=O)[C@H](CC(N)=O)NC(=O)[C@H](C)N)[C@@H](C)O)[C@@H](C)CC)C(=O)O` is reported as over 1000 µM (Na(+)/H(+) exchange regulatory cofactor NHE-RF2, PDZ domain 2 (Homo sapiens, UniProt Q15599); binding, fluorescence polarization displacement; PDZ domain 2, together with: fluorescent CFTR peptide).
`O=C(O)[C@H]1NCCN(S(=O)(=O)c2ccc(-c3ccccc3)cc2)[C@H]1C(=O)O` has a Ki of 13.6 ± 1.8 µM (Grin2a with GluN1a subunit; ion current, antagonist; Xenopus oocytes expressing GluN1/GluN2A, rat).
`COC(=O)c1ccc(CSc2ncnc3c2ncn3C2CC(CO)C(O)C2O)cc1` (centres unmarked) has a Ki of 41 ± 3.2 µM (adenosine kinase (Toxoplasma gondii); apparent Ki equals apparent Km).
For `CCCCC/C=C\C/C=C\C/C=C\C/C=C\CCCC(=O)O`, the Ki was 0.11 µM (Fatty acid-binding protein, liver (FABP1, Homo sapiens, UniProt P07148); binding, ANS displacement).
`O=C(NCCCCN1CCN(c2ccccc2OCCF)CC1)c1ccc(-c2ccsc2)cc1` has a Ki of over 5 µM (sigma 1 receptor).
For `Nc1ncnc2c1ncn2[C@@H]1O[C@H](CO)[C@@H](O)[C@H]1O`, the Ki was 2.6 ± 0.9 µM (Equilibrative nucleoside transporter 2; ENT1 knockout).
`OCC1CC(n2cnc3c(SCc4ccc(Cl)cc4Cl)ncnc32)C(O)C1O` (centres unmarked) has a Ki of 61 ± 7.9 µM (adenosine kinase (Toxoplasma gondii); apparent Ki equals apparent Km).
With `OCCN(CCO)c1nc(N2CCCCC2)c2nc(N(CCO)CCO)nc(N3CCCCC3)c2n1` the Ki was 0.156 µM (TSPO; together with: [3H]Ro5-4864).
`O=C(O)[C@H]1NCCN(Cc2ccc3c(ccc4ccccc43)c2)[C@H]1C(=O)O` has a Ki of 10.3 ± 1.9 µM (Grin2b with GluN1a; ion current, antagonist; Xenopus oocytes expressing GluN1/GluN2B, rat).
`O=c1[nH]c(=O)c2[nH]c(=O)c(=O)n(C[C@H](O)[C@H](O)[C@H](O)CO)c2[nH]1` has a Ki of 1.4 ± 0.1 µM (6,7-dimethyl-8-ribityllumazine synthase (ribH, Mycobacterium tuberculosis, UniProt P9WHE9); inhibitor; pH 7.0).
